Results pooled from the literature.
Every numbered part comes from another study and shows a few of its results, in no order. Changes are numbered by the printed parent chain.

Sample 1 — target: CCNA1, cyclin fold, Cln2 fusion (human); technique: yeast growth competition, sequencing; medium: yeast; notes: weak parent motif; reference: not given; reading: higher = stronger binding
Starting sequence: PKMYT1 docking peptide (human); SFEPRNLLSLFED; partner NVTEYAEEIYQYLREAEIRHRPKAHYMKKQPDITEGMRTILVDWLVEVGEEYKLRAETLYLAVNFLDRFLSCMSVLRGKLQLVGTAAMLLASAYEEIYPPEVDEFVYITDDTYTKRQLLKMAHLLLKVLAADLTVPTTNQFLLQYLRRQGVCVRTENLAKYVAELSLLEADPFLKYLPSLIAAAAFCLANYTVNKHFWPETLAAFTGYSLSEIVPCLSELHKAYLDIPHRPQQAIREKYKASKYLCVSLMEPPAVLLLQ
Change	normalised enrichment score
SFEPENLLSLFED [R5E]	0.621
SFEQRNLLSLFED [P4Q]	0.297
SFEPRNLLSWFED [L10W]	0.236
SFRPRNLLSLFED [E3R]	0.112
SQEPRNLLSLFED [F2Q]	0.167
SSEPRNLLSLFED [F2S]	-0.0111
SFEPRNPLSLFED [L7P]	0.119
SFEPRNLLSLFQD [E12Q]	-0.285

Sample 2 — technique: universal PBM; form: double-stranded DNA, one strand shown; medium: in vitro; tested at: not given; reading: higher = stronger binding
Target: Sal-like protein 4, full length isoform B (SALL4, Homo sapiens, UniProt Q9UJQ4-2, residues 1-616)
Notes: 8-mer, flanks averaged, mean of replicates
Sequence	E-score
ATGAAGTA	0.219
CCGCCTCA	-0.295
ACGGCCTG	-0.295
AACCCACC	-0.225
ACTCTCTC	-0.154
CCGCTCAC	-0.371
GGACGCTA	-0.153
AGCGGATA	-0.156
CGACGGAA	-0.0752
CACGCGAC	-0.155

Sample 3 — technique: DHFR PCA, deep sequencing; medium: yeast; added: (+)-ABA 58 µM; reference: wild-type fitted maximum; reading: higher = stronger binding
Target: ABI1, truncated, D143A, DHFR fusion (Arabidopsis thaliana)
Notes: methotrexate growth selection, single substitutions
Starting sequence: PYL1, truncated, DHFR fusion (Arabidopsis thaliana); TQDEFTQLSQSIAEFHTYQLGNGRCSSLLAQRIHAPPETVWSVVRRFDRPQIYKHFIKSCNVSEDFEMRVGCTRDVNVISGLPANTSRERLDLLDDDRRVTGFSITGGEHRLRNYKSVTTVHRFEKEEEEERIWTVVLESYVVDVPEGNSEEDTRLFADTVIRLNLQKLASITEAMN; partner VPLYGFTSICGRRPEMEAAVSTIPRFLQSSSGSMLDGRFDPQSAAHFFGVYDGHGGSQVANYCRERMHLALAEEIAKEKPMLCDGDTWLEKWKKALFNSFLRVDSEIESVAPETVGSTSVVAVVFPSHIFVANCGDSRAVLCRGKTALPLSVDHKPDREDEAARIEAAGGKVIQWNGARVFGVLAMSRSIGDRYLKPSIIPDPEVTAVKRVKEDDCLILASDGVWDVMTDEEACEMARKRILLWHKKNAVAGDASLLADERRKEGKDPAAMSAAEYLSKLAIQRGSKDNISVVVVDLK
Change	relative binding score
Q51P	-35%
P37Q	50%
T1L	87.6%
I52K	76.5%
S26H	91%
T6W	85.4%
F124R	58.5%

Single results of other studies
Molecule	target	test	system	setting	how to read	quantity	result
PhoQ, residues 284 288 289 292 302 303 SLKLQV	PhoP, residues 12 14 15 18 19 AGCRL (Escherichia coli, UniProt P23836)	Sort-seq, measured: YFP reporter	E. coli	PhoQ-PhoP variant library, added: 10 µM Mg2+	reference: high Mg2+ state, higher = stronger signaling	fold induction	8.31
